Results of several laboratories.
Compare with care: the assays were run in different laboratories. “And” joins repeats or separate records; there may be more than shown. ± gives the spread as reported.

Cc1nnc(C(=O)NC(C)(C)c2nc(C(=O)NCc3ccc(F)cc3)c(O)c(=O)n2C)o1
pKa (basic): < 2

CC(C)C[C@H](NC(=O)[C@@H](Cc1c[nH]c2ccccc12)NC(=O)[C@H](Cc1ccc(O)cc1)NC(=O)[C@H](CO)NC(=O)[C@H](Cc1c[nH]c2ccccc12)NC(=O)[C@H](Cc1c[nH]cn1)NC(=O)[C@@H]1CCC(=O)N1)C(=O)N[C@@H](CCCNC(=N)N)C(=O)N1CCC[C@H]1C(=O)NCC(N)=O
patients, drug-related nocturnal emission (Chinese CPP children, overall; intramuscular, 22.5 mg, 12 months, day 1, month 6): 1.5%

CCO[C@H]1CCN(Cc2c(OC)cc(C)c3[nH]ccc23)[C@H](c2ccc(C(=O)O)cc2)C1
unbound Tmax (human severe hepatic impairment, plasma; oral, 200 mg single dose, median): 3.5 h

C#Cc1cccc(Nc2ncnc3cc(OCCOC)c(OCCOC)cc23)c1
CL/F decrease (UPLC-MS/MS; Wistar rat, male, plasma; oral, four weeks, together with: PPA 1000 mg/kg, high dose; relative to: control): 75%

Cc1ccc(Sc2ccccc2N2CCNCC2)c(C)c1
participants with TEAE (item: blood in urine; healthy adult men; oral, 5 mg daily, 12 days): 16.7%

COc1ncc(-c2nc3c(n2C(C)C)[C@H](c2ccc(Cl)cc2)N(c2cc(Cl)cn(C)c2=O)C3=O)c(OC)n1
median half-life (human patients, plasma; oral, 350 mg, high-dose arm, cycle 1 day 1): 840 min

CC(=O)N(C)[C@H]1CCN(C(=O)c2cnc3c(c2)C[C@](C)(c2ccc(F)cc2)N3)C1
lactate dehydrogenase (human; dose not given): 575 U/L

COc1cc(Nc2ncc3c(n2)-c2ccc(Cl)cc2C(c2c(F)cccc2OC)=NC3)ccc1C(=O)O
decreased lymphocyte count incidence (patients; oral, dose not given, grade 1, any attribution, together with: pembrolizumab): 38%

COc1cc2c3c(n(CCCN4CCOCC4)c(=O)c2cc1OC)-c1cc2c(cc1C3=O)OCO2
Cmax (beagle dog, male, plasma; intravenous infusion, 50 mg/m^2, 1 h infusion, vehicle 2): 280 ± 24 ng/mL

CCC(CC)C(=O)Oc1cccc(C(O)CCN)c1.O=CO (stereo not shown)
ERG b-wave amplitude (scotopic ERG; BALB/cJ mice; intraperitoneal, 10 mg/kg, 2 h dark adaptation, together with: 10,000 lx photobleach, 10 min): 30 µV and 26 µV and 29 µV and 36 µV and 20 µV and 144 µV

C[C@@H]1COCCN1c1cc(C2([S@](C)(=N)=O)CC2)nc(-c2cc[nH]c3nccc2-3)n1
Constipation incidence (Japanese advanced solid tumour patients; oral, 160 mg twice daily, CTCAE grade ≥3): 0%

Cc1cc(-c2nccc3c2ccn3CC(=O)Nc2ccc(-c3cnccn3)cn2)ccn1
application site scab incidence (healthy human volunteers; oral, 40 mg single dose, single ascending dose): 0%

CC(C(=O)NCC(=O)NCC(CNC(=O)CNC(=O)C(C)N1CCN(CC(=O)[O-])CCN(CC(=O)[O-])CCN(CC(=O)[O-])CC1)(CNC(=O)CNC(=O)C(C)N1CCN(CC(=O)[O-])CCN(CC(=O)[O-])CCN(CC(=O)[O-])CC1)CNC(=O)CNC(=O)C(C)N1CCN(CC(=O)[O-])CCN(CC(=O)[O-])CCN(CC(=O)[O-])CC1)N1CCN(CC(=O)[O-])CCN(CC(=O)[O-])CCN(CC(=O)[O-])CC1.[Gd+3].[Gd+3].[Gd+3].[Gd+3] (stereo not shown)
cumulative urinary excretion (ICP-MS; cynomolgus monkey; 8 h, MB study group; relative to: dose): 84.1%

O=C1CC[C@H](N2Cc3cc(N4CCN(CC5CCN(c6ccc([C@@H]7c8ccc(O)cc8CC[C@@H]7c7ccccc7)cc6)CC5)CC4)ccc3C2=O)C(=O)N1
Tlast (human, plasma; oral, 200 mg, median, range, together with: dabigatran etexilate 75 mg): 49.5 h

N[C@@H](Cc1cc(I)c(Oc2ccc(O)c(I)c2)c(I)c1)C(=O)O
pKa (acidic): 3.9

COc1ccc2[nH]c([S+]([O-])Cc3ncc(C)c(OC)c3C)nc2c1 (stereo not shown)
AUC(0-inf) (healthy Chinese volunteers, plasma; oral, 20 mg, fed, CYP2C19 normal metabolizers): 459 ± 565 ng·h/mL

CNCc1ccc(-c2[nH]c3cc(F)cc4c3c2CCNC4=O)cc1
incidence of pulmonary embolism (human patients; oral, 600 mg twice daily, grade 3): 0%

CCOc1c([C@H](C)n2nc(C)c3c(N)ncnc32)cc(Cl)c(F)c1[C@@H]1CNC(=O)C1
Cmax geometric mean (patients, monotherapy; oral, 45 mg once daily, cycle 1 day 15): 4.96 µM

CC(C)(C(=O)N1CCOc2c(C#N)cncc2C1)C(F)F
subjects with adverse event (item: Headache; human; oral, 15 mg twice daily, 14 days, multiple ascending dose): 12.5%

O=C(N[C@H](Cc1c[nH]c2ccccc12)C(=O)Nc1ccncc1)c1ccc(N2CCN(c3ccc(F)cc3F)CC2)cc1F
concentration (Swiss Webster mouse, female, fat; oral, 50 mg/kg, 8 h, 20% Kolliphor vehicle): 13.8 µM

CNC(=O)c1cc(Oc2ccc(NC(=O)Nc3cc(C(C)(C)C)nn3-c3ccc4ncccc4c3)c(F)c2)ccn1
patients with visual abnormality AE (item: worst grade 3; human; oral, dose not given, cycles 1 and 2, High AUC(0-4 h) subgroup): 6%

Cc1c2oc3c(C)ccc(C(=O)N[C@@H]4C(=O)N[C@H](C(C)C)C(=O)N5CCC[C@H]5C(=O)N(C)CC(=O)N(C)[C@@H](C(C)C)C(=O)O[C@@H]4C)c3nc-2c(C(=O)N[C@@H]2C(=O)N[C@H](C(C)C)C(=O)N3CCC[C@H]3C(=O)N(C)CC(=O)N(C)[C@@H](C(C)C)C(=O)O[C@@H]2C)c(N)c1=O
maximum plasma concentration (LC-MS; children with cancer, plasma; dose not given, 1 h): 38.1 µg/L

O=C(CCCCCCC(=O)Nc1ccc(CC[18F])cc1)NO
tissue uptake (athymic nu/nu male mice, LNCaP xenograft, lungs; intravenous, 1 h): 2.4 ± 0.5 %ID/g

CN1C(=O)[C@@H](NC(=O)c2nnc(Cc3ccccc3)[nH]2)COc2cccnc21
nasopharyngitis incidence (phase I multiple ascending dose; human, male and female; oral, 600 mg, 14 days): 0%

CCN1/C(=C/C(C)=O)Sc2ccc(F)cc21
QRS duration (cynomolgus monkey; oral, 100 mg/kg, 1 h post-dose): 36 ± 2 ms

CO[C@@H]1[C@H](OC(=O)N2CC(CCN3CCOCC3)C2)CC[C@]2(CO2)[C@H]1[C@@]1(C)O[C@@H]1CC=C(C)C
prothrombin time (humans; subcutaneous, 0.6 mg twice weekly for 4 weeks, day 28; relative to: baseline): 0.12 ± 0.34 s

COc1ccc(-c2csc(NC(=O)c3ccc(C(=O)Nc4nc(-c5ccc(OC)c(OC)c5)cs4)s3)n2)cc1OC
maximum haemolysis (sheep erythrocytes; 1 h, pH 7.5): 11.7%

O=C(Nc1nc2cccc(-c3ccc(CN4CCS(=O)(=O)CC4)cc3)n2n1)C1CC1
patients with renal disorders (rheumatoid arthritis patients; oral, 100 mg twice daily, 4 weeks, regardless of relatedness): 0%

Cc1noc2c1-c1ccccc1C(c1ccc(Cl)cc1)=N[C@H]2CC(N)=O
AUC(0-last) (Crl:CD1(ICR) mice, female, plasma; intravenous, 5 µmol/kg): 6.46 µM·h

COc1cc2[nH]c(C)c(-c3c(C)cc(C)cc3C)c(=O)c2cc1Cl
Papp (PAMPA; pH 7.4): 406 ×10⁻⁶ cm/s

CN(CCC#N)C1CCN(C(=O)Cn2cc(NC(=O)c3cnn4cccnc34)c(-c3cc(Cl)ccc3OC(F)F)n2)CC1
outer to inner ratio (gamma scintigraphy; human, right lung; inhalation, dose not given): 1.36

NC1(C(=O)N[C@@H](CCO)c2ccc(Cl)cc2)CCN(c2nc[nH]c3nccc2-3)CC1
incidence of maculopapular rash (metastatic CRPC patients; 480 mg b.i.d., grade 3 to 4, treatment-related, together with: enzalutamide 160 mg daily): 40%

CNC(=O)c1ccc(-c2cnc3ncc(Cc4ccc5ncccc5c4)n3n2)cc1F
Vomiting treatment discontinuation (Japanese patients; oral, 400 mg, grade 3/4): 1%

COc1nc(-c2cc(C)c(N[C@@H](C)c3cc(F)cc(F)c3)nn2)ccc1-n1cnc(C)c1
t1/2 (cynomolgus monkey, male, plasma; intravenous, 1 mg/kg): 222 min

N#Cc1ccc2c(c1)[C@H]1CCCN(C(=O)c3ccc4[nH]cnc4c3)[C@H]1C2
SHBG level (human males; 360 mg, day 7): 32.7 nmol/L

Cc1cc(-c2nnc(N)nc2-c2ccc(F)cc2)cc(Cl)n1
patients with immune-mediated AE (item: Colitis; IO-naive mCRPC patients, male; oral, dose not given, treatment-related, grade ≥3): 0%

CC[C@H](C)[C@H](NC(=O)CN)C(=O)N[C@@H](C)C(=O)N[C@@H](CCCCN)C(=O)N[C@@H](C)C(=O)N[C@H](C(=O)N[C@@H](CCCCN)C(=O)N[C@@H](CCCCN)C(=O)N[C@H](C(=O)N[C@@H](C)C(=O)N[C@@H](CCCCN)C(=O)N[C@@H](C)C(=O)N[C@@H](CC(C)C)C(=O)NCC(N)=O)[C@@H](C)CC)[C@@H](C)CC
mean residue ellipticity (circular dichroism at 222 nm; 10 mM SDS; 100 µM, pH 4.0): -6800 deg cm2/dmol

COc1ccc([C@@H](O)c2cc(-c3ncnc4cc(N5CCOCC5)ccc34)c(F)cc2Cl)nn1
investigations TEAE (locally advanced rectal cancer patients; 150 mg, together with: capecitabine and radiotherapy): 50%

C=CCN1CC(=O)N2[C@@H](Cc3ccc(O)cc3F)C(=O)N(Cc3cccc(N4CC(N5CCN(CC)CC5)C4)n3)C[C@@H]2N1C(=O)NCc1ccccc1
treatment-related AST increased (advanced solid tumour patients; oral, 30 mg twice daily, any grade, dose-escalation): 0%

Cc1cc(C#N)cc(C)c1Oc1nc(Nc2ccc(C#N)cc2)nc(N)c1Br
maximum supersaturated concentration (solvent-shift UV; FaSSIF with 0.1% HPMC): 95 µg/mL

Cc1c(-c2ccc(N3CCc4cccc(C(=O)Nc5nc6ccccc6s5)c4C3)nc2C(=O)O)cnn1CC12CC3(C)CC(C)(C1)CC(OCCNCC[C@H](O)CO)(C3)C2
plasma concentration (anaesthetized male beagle dog; iv infusion, 0.3 mg/kg/min, 30 min): 19 ng/mL and 9.12 ng/mL

COc1ccc(C[C@@H](C)[C@@H](C)Cc2ccc(OC)c(OC)c2)cc1OC
Tmax (beagle dog male, plasma; oral, 1000 mg/kg/day, day 1, median): 4 h

COc1ccc2c(=O)n(C)c(-c3ccccc3)nc2c1
tissue concentration (Sprague-Dawley rat, male, bladder; oral, 30 mg/kg, 0.5 h): 9.44 ng/mL

C[C@H]1O[C@@H](O[C@H]2CC[C@@]3(C)[C@@H](CC[C@]4(C)[C@@H]3C=C[C@]35OC[C@@]6(CCC(C)(C)C[C@H]63)[C@@H](O)C[C@]54C)[C@]2(C)CO)[C@H](O)[C@@H](O[C@@H]2O[C@H](CO)[C@@H](O)[C@H](O)[C@H]2O)[C@H]1O
plasma concentration (UHPLC-MS/MS; mouse, plasma; oral, 50 mg/kg, 0.5 h): 63.1 ng/mL

CC(F)(F)c1cc(F)ccc1-c1sc2cc(O)ccc2c1Oc1ccc(/C=C/C(=O)O)cc1
Tlast (human, serum; oral, 900 mg once daily, cycle 1 day 28, fasted, median): 23.3 h

Cc1ccc([C@@H]2O[C@H](CO)[C@@H](O)[C@H](O)[C@H]2O)cc1Cc1ccc(-c2ccc(F)cc2)s1
urinary magnesium excretion change (Japanese type 2 diabetes patients; 25 mg, day 5, 24 h urine collection; relative to: baseline): 8.5 mg
